Measurements of several laboratories.
Every numbered part comes from another study and shows a few of its results, in no order.

Set 1 — technique: aptamer microarray, sandwich; form: DNA with 2'F-ANA; medium: in vitro; concentration: 200 nM; together with: Cy3 exosite-II aptamer, 400 nM; direction: higher = stronger binding; measurement: mean fluorescence intensity; oligonucleotide: GGTTGGTGTGGTTGG
Target: Prothrombin, mature alpha-thrombin (F2, Homo sapiens, UniProt P00734)
Setting: whole 15-mer aptamer, many near background
Modification = 2'F-ANA at 2 4 5 6 8 10 14; result = 45.5 a.u.
Modification = 2'F-ANA at 4 6 8 11 15; result = 255 a.u.
Modification = 2'F-ANA at 1 3 5 7 15; result = 64.2 a.u.
Modification = 2'F-ANA at 1 4 8 9 11; result = 114 a.u.
Modification = 2'F-ANA at 2 4 6 8 12; result = 662 a.u.
Modification = 2'F-ANA at 1 2 3 5 7 9 14 15; result = 46.3 a.u.
Modification = 2'F-ANA at 1 2 3 6 7 8 9 10 13 15; result = 64.7 a.u.
Modification = 2'F-ANA at 1 2 3 4 5 6 7 8 9 10 11 12 15; result = 58.6 a.u.
Modification = 2'F-ANA at 3 4 6 7 8 9 12 13; result = 706 a.u.
Modification = 2'F-ANA at 1 4 6 9 11 12; result = 191 a.u.
Modification = 2'F-ANA at 1 2 4 5 6 7 11 12 13 15; result = 63.1 a.u.
Modification = 2'F-ANA at 1 2 4 8 10 12; result = 59.9 a.u.
Modification = 2'F-ANA at 3 6 9 10 11 13 14 15; result = 334 a.u.
Modification = 2'F-ANA at 4 5 7 10 12 13 14; result = 45.3 a.u.

Set 2 — technique: RNA Bind-n-Seq; form: RNA; medium: in vitro; concentration: 365 nM; baseline: no-protein control; direction: higher = stronger binding; measurement: RBNS enrichment (R)
Target: RNA binding protein fox-1 homolog 2, RRM domain, GST-SBP tag (RBFOX2, Homo sapiens, UniProt O43251-10, residues 100-194)
Setting: natural RNA segment, single round, ends assumed
Target sequence (chain): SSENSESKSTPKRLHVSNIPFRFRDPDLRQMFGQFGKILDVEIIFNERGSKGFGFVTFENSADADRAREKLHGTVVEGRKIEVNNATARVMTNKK
Oligonucleotide = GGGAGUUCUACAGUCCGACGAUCUUGAUUUCAGAAAUCAGUACCUGGCGAGAUUUUUGUCUCAAAACGACUAUUUGAAUUUCAAGAACUGUGCUGCGAAGACACUCUGAGAACAUUUGCAAGUCAGGGGCAUUUGGAAUUCUCGGGUGCCAA; result = 0.452
Oligonucleotide = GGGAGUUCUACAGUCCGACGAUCGUCUACAAGUUUCUACUUUCUUGUUUGAUUGAGCAAAGUCUCCUAGUGACAGCAACACCAUGAAUUUUACUUCUCUUGGGUGGUUCUGGGAAUGGGAGAGGGGCAAGCUGUGGAAUUCUCGGGUGCCAA; result = 0.387
Oligonucleotide = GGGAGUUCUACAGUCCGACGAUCUACUUCAUCUGUUCUCAUUUGUGCCAUCUGCCGUGAUGUCGUCACUUUUAUGGCGUUAAUUUCCUGCCACUACAGAUCUUUUGAAGAUUGCUGGAAUACUGGUGUCUGUUUGGAAUUCUCGGGUGCCAA; result = 0.976
Oligonucleotide = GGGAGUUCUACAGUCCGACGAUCAGUUUGUUUGUAUAACUGCUUCCAACCCACUGCUUCUUAUGUUGCUGGGGCUCCUUCCACGGACCCCAGCUGUGCCCUCAAGUUGGUGAUUCUAGUUUGGGCUCAAUGAAUGGAAUUCUCGGGUGCCAA; result = 0.301
Oligonucleotide = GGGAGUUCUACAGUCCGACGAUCGCAACACAGCGCAAUCUCGUCUCUACUAAAAAAAAAAAAAAAAAAAAAUUAGCUGGGCAUGAUGGCAUGCUCCUGUGGUCCCAGCUACUUGGGAGGCUGAGGCAGGAGGAUGGAAUUCUCGGGUGCCAA; result = 3.86
Oligonucleotide = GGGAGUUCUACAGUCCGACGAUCUGUCGUCAGAGGCUUGUGAUUAACUGUGGCGGCAGACACAGCUUGUCCACAGCUUGGGCCAGGCUUCCCCUGUCCUCCCACCGGUCGGCUGCUUGGCAAGGCUGUUCAGGUGGAAUUCUCGGGUGCCAA; result = 0.578
Oligonucleotide = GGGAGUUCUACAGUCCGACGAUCGAGACCUCUCUGAUUCAGAAACACACUUCUACCUCUUUACUGUUAACUCCAACAGAUGUAGCCAGCAGCCUGGGCACUUGUGUUAGUGGUGCCGUUUGCUGGCUUCUCCAUGGAAUUCUCGGGUGCCAA; result = 2.45
Oligonucleotide = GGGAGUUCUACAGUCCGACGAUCAAAAGGAUUCAAACGCAACUCAAAUCUGUGCUGGACUUUUGAAAAACCACAAUUCAGGACCAAAUUUUUUCUCCGUGUGUGUUUAUUCCUUAUAGGUGUAAUUGAGAAGAUGGAAUUCUCGGGUGCCAA; result = 0.516

Set 3 — technique: competition protein-binding microarray; form: double-stranded DNA, one strand shown; medium: in vitro; concentration: 2 µM; together with: Pho4 competitor, 0.05 µM; direction: higher = stronger binding; measurement: fluorescence intensity
Target: Centromere-binding protein 1, full length, His-tagged (CBF1, Saccharomyces cerevisiae, UniProt P17106, residues 1-351)
UniProt P17106, sequence (whole entry, looked up): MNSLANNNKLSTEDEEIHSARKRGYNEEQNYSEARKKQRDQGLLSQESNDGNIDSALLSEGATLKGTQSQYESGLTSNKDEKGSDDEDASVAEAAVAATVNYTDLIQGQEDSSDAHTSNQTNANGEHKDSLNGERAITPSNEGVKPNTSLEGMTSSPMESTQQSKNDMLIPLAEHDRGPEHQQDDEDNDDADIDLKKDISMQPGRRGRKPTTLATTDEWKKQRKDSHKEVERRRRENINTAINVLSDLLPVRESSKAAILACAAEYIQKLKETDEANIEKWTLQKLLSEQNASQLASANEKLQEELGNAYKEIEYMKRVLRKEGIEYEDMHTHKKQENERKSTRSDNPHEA
Setting: whole 60-bp probe, lowest competitor level
Oligonucleotide = ATGTACCGTTCAAGCCACCTGACATTATACCACCAGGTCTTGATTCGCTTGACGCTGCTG; result = 238 a.u.
Oligonucleotide = AAAGCGGTAATTTGTCACGAGACTTCACATATCTATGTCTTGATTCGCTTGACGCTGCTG; result = 1470 a.u.
Oligonucleotide = TGCGCAACAACTTGGAACGTGGGTGTATGTCTAGAAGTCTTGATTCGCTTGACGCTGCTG; result = 74.7 a.u.
Oligonucleotide = GTCCTTTGCCTCTACCTCGTGCTTTCTCTTGCCATGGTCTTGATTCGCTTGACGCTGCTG; result = 180 a.u.
Oligonucleotide = CAAGAAATCGCACTTTACGTGCAAACAAATCAAATGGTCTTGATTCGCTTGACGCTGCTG; result = 96.1 a.u.
Oligonucleotide = CTTTCCCGATCTTGAATCGTGGGTGTAGCACATTTGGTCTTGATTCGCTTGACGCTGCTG; result = 72.7 a.u.
Oligonucleotide = TTCGCCCACAAAAGTTGCGTGCCGATCTAGTTCCAGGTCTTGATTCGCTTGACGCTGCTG; result = 72.1 a.u.
Oligonucleotide = TTAATATGGTGGAGTCAGCTGAGAAGTTTTTTCAATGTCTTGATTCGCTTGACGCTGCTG; result = 149 a.u.
Oligonucleotide = TCAGGAATATGAAGGCAGGTGAAATGAAACCAGTCAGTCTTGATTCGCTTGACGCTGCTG; result = 63.6 a.u.
Oligonucleotide = GTCTTGTCTCATTGCAAAGTGGGTGTCCCCACTTCAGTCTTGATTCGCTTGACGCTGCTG; result = 93.5 a.u.
Oligonucleotide = CGTCCCCCACCATGTCGCGTGTGAAGAATTGTGGGTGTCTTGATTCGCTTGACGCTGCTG; result = 130 a.u.
Oligonucleotide = CTAACGAAGGTTTGCAACGTGGGTGACAAGCCAAGTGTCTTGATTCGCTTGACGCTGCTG; result = 83.7 a.u.
Oligonucleotide = TCAAATTAGACAATTGGCGTGGCCGGACGAGATCGCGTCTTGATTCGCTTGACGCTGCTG; result = 57.7 a.u.

Set 4 — technique: protein-binding microarray; form: double-stranded DNA, one strand shown; medium: in vitro; concentration: 2540 nM top; setting: 60-bp whole probe; together with: salmon DNA 0.4 mg/ml; baseline: random background probes; direction: higher = stronger binding; measurement: fitted relative affinity; shared flanks, not repeated: GCCTAGCAC … GTCTTGATTCGCTTGACGCTGCTG
Target: Interferon regulatory factor 3, full length, phosphomimetic (IRF3, Homo sapiens, UniProt Q14653, residues 1-427, S386D/S396D/S398D/S402D/T404D/S405D)
Residues (chain): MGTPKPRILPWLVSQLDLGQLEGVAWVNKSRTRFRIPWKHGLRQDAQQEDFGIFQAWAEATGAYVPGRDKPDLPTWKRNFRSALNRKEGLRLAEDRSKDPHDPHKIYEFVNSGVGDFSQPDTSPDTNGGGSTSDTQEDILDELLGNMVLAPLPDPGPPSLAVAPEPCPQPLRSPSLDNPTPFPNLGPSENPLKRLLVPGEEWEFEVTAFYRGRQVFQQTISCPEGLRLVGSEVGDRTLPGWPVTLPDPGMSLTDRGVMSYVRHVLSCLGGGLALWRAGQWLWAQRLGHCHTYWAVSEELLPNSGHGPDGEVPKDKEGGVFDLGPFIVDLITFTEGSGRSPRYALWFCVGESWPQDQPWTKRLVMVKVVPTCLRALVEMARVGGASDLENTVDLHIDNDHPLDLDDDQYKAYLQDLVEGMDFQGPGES
Oligonucleotide = TACAGCAGGGAGGGAGGCACGTGCTAG; result = -0.91 z-score
Oligonucleotide = GACGATTTCAGTTTCGTGACGTGCTAG; result = 4.13 z-score
Oligonucleotide = GAGGGTATCGGGTATCGGGACGTGCTA; result = 0.598 z-score
Oligonucleotide = TTAGAACTGAGTCTCGATCAGTGCTAG; result = -0.466 z-score
Oligonucleotide = GGTGCCTCGGGTTCAGGGAGGTGCTAG; result = -0.778 z-score
Oligonucleotide = TTAGGTTTCGGGTATCGTTTAGTGCTA; result = 4.31 z-score
Oligonucleotide = GACGAACTGAGACTGCAGACGTGCTAG; result = -0.354 z-score
Oligonucleotide = GACGATATCAGTATCCAGACGTGCTAG; result = 2.01 z-score
Oligonucleotide = TTAGGTTTCGGTTTCAGTTAGTGCTAG; result = 11.1 z-score
Oligonucleotide = GACGGCCTCGGTTTCGGGACGTGCTAG; result = 1.8 z-score
Oligonucleotide = GTAAGCAAAAATGATTGGTTGTGCTAG; result = -0.108 z-score

Repeated from above (set 3):
Oligonucleotide = TGCGCAACAACTTGGAACGTGGGTGTATGTCTAGAAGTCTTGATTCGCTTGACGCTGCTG; result = 74.7 a.u.
Oligonucleotide = GTCTTGTCTCATTGCAAAGTGGGTGTCCCCACTTCAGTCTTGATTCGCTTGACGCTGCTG; result = 93.5 a.u.
Oligonucleotide = CGTCCCCCACCATGTCGCGTGTGAAGAATTGTGGGTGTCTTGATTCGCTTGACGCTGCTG; result = 130 a.u.
Oligonucleotide = TCAAATTAGACAATTGGCGTGGCCGGACGAGATCGCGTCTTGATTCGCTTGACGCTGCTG; result = 57.7 a.u.
Oligonucleotide = CTTTCCCGATCTTGAATCGTGGGTGTAGCACATTTGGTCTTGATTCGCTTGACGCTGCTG; result = 72.7 a.u.
Oligonucleotide = CAAGAAATCGCACTTTACGTGCAAACAAATCAAATGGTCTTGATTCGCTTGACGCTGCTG; result = 96.1 a.u.
